Measured values gathered from unrelated publications.
Each line is one published result; not all experiments were run side by side.
Target: Serine/threonine-protein kinase Sgk3 (SGK3, Homo sapiens, UniProt Q96BR1)

Structure (SMILES)	assay	system	conditions	scale	endpoint	result
Cc1ccc(-c2c(/C=C(\C#N)C(=O)NC(C)C)n(CCCO)c3ncnc(N)c23)cc1	cell-free assay, competition with immobilised ligand	–	1 µM	–	remaining binding	66%
CNC(=O)C1CCN(c2cc(C)c(F)cc2NC(=O)c2ccc(-c3cc(O)ccc3C)c(C)c2)CC1	binding, competition with immobilised ligand	–	1 µM	–	remaining binding	63%
C=CC(=O)Nc1cccc(-c2cnc3[nH]cc(C(=O)NC(C)(C)C)c3n2)c1	enzyme activity, inhibitor	–	0.1 µM	–	inhibition	4%
C=CC(=O)N1CCc2ccc(-n3c(=O)ccc4cnc5ccc(-c6cnn(C)c6)cc5c43)cc21	KINOMEscan	–	1 µM	reference: DMSO control	remaining binding	67%
COc1cc(Nc2nc(C)cc(-c3cnn4nc(OC)ccc34)n2)cc(C(F)(F)F)c1	binding, competition with immobilised ligand	–	1 µM	–	remaining binding	74%
Cc1ccc(C(=O)Nc2ccc(CN3CCN(C)CC3)c(C(F)(F)F)c2)cc1C#Cc1cnc2cccnn12	target engagement, NanoBRET	human cells	–	–	upper asymptote	62.8
COc1ccc(NC(=O)Nc2ccc3c(c2)C(=O)N(C(C)CO)CC(C)C(CN(C)Cc2ccc4c(c2)OCO4)O3)cc1 (centres unmarked)	kinase activity, KinaseProfiler	–	0.03 µM, species human	reference: control	remaining activity	97%
COc1c(Cl)cccc1Nc1c(-c2ccncc2C#C[C@@]2(C)CCCN2C(=O)/C=C/CN(C)C)[nH]c2c1C(=O)NCC2	binding, competition with immobilised ligand	–	3 µM	–	remaining binding	100%
Cc1cccc(O[C@H]2CCC[C@@H](C(C)CNCc3ccncc3)C2)c1 (relative stereo)	enzyme activity, inhibitor	–	1 µM	–	inhibition	-6%
O=C(Cc1ccc(OCc2ccccc2)cc1)NC1(C(=O)O)CCN(C(=O)c2ccc(-c3cccc(Cl)c3)cc2)CC1	enzyme activity, inhibitor	–	10 µM	–	activity vs control	120%
O=C=[N][Ru-4]123([n]4c5ccc(O)cc5c5c6c(c7cc(F)c[n+]1c7c54)C(=O)NC6=O)[S+]1CC[S+]2CC[S+]3CC1 (centres unmarked)	enzyme activity	–	100 nM, human enzyme, together with: 10 µM ATP	reference: untreated	remaining activity	92%
NC(=O)C[C@H]1CCc2sc3ncnc(O[C@H]4CC[C@H](N5CCOCC5)CC4)c3c21	enzyme activity, inhibitor	–	10 µM	–	inhibition	6%
COc1c(OCCCN2CCOCC2)ccc2c1N=C(NC(=O)c1cnc(N)nc1)N1CCN=C21	kinase activity, inhibitor	–	1 µM	reference: untreated control	remaining activity	82%
CCn1cc(C(=O)O)c(=O)c2c(N)c(F)c(NC3CCCCC3)cc21	kinase activity	–	0.1 µM, together with: ATP at Km	–	inhibition	2.4%
CN1CC[C@@H](COc2cnc(C#N)cc2-c2ccn3nc(NC(=O)C4CC4)cc3c2)C1	enzyme activity, inhibitor	–	1 µM	–	inhibition	9%
Nc1ncc(-c2cc(-c3cnn(CC(F)(F)F)c3)ncc2F)nc1C(=O)NC1CNCC(F)C1 (centres unmarked)	enzyme activity	–	1 µM	reference: DMSO control	remaining activity	91.7%
CNC(=O)C[C@H](Cc1ccc(C#N)cc1)NC(=O)c1cc(-c2ccc(CN[C@H](C)c3ccc(C)cc3)o2)ccc1Cl	enzyme activity, inhibitor	–	1 µM	–	activity vs control	101%

Repeated from above:
Structure (SMILES)	assay	system	conditions	scale	endpoint	result
COc1c(OCCCN2CCOCC2)ccc2c1N=C(NC(=O)c1cnc(N)nc1)N1CCN=C21	kinase activity, inhibitor	–	1 µM	reference: untreated control	remaining activity	82%
COc1cc(Nc2nc(C)cc(-c3cnn4nc(OC)ccc34)n2)cc(C(F)(F)F)c1	binding, competition with immobilised ligand	–	1 µM	–	remaining binding	74%
C=CC(=O)Nc1cccc(-c2cnc3[nH]cc(C(=O)NC(C)(C)C)c3n2)c1	enzyme activity, inhibitor	–	0.1 µM	–	inhibition	4%
